Published values pooled from the literature.
Parts stem from different laboratories: compare values within a part only.

Set 1
Target: Histone acetyltransferase KAT6A, winged helix 1, GST fusion (KAT6A, Homo sapiens, UniProt Q92794, residues 1-85)
Technique: protein binding microarray
Molecule type: double-stranded DNA, one strand shown
Matrix: in vitro
Concentration: not given
Setting: 8-mer, flanks averaged, mean of 2 arrays, mostly near background
Reference: not given
Reading: higher = stronger binding
Quantity: E-score
Residues (chain): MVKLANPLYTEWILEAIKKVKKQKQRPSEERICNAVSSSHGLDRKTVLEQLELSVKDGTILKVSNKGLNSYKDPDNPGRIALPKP
CTTTTCCA: -0.15
TGAAGCAA: -0.221
AAGTCTAG: -0.0265
GAGTTTCA: -0.156
CGGTCCAC: 0.0673
AAGAAGCT: -0.215
AATGAGTC: -0.0376
ACCGAAGA: -0.259
ATCACAAG: -0.109
CCTGTACA: -0.0808
ATGCGCGG: 0.464
AAGCCTGA: -0.0513
AACAACCA: -0.147
TAATTTCA: -0.102
CGGGTCGA: 0.0828
GACCCAAC: -0.0888
ATCTGATG: -0.116
CTACCCAC: -0.0814
AGGAGGCA: -0.103
TGCTGAAA: -0.151
AAGTGAGA: -0.0928
AATATAAT: 0.00181
ATTAGCGA: 0.112
AACATTCT: -0.226
CAAGCAGA: -0.121

Set 2
Target: RNA binding protein fox-1 homolog 2, RRM domain, GST-SBP tag (RBFOX2, Homo sapiens, UniProt O43251-10, residues 100-194)
Technique: RNA Bind-n-Seq
Molecule type: RNA
Matrix: in vitro
Concentration: 365 nM
Setting: natural RNA segment, single round, ends assumed
Reference: no-protein control
Reading: higher = stronger binding
Quantity: RBNS enrichment (R)
Constant ends, left off below: GGGAGUUCUACAGUCCGACGAUC … UGGAAUUCUCGGGUGCCAA
Construct (chain): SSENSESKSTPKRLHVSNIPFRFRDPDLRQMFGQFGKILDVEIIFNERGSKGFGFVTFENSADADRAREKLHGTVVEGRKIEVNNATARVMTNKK
CAGCGCAGCCUCUUGUGUAAGGACUGACUACCUGGACUGAUCGCCUGACAGAUCCCACCUGCCUGUCCACUGCCCAUGACUGAGCCCAGCCCCAGCCCGGGUCCAUUGCC: 1.46
AUAGCGUUUCCAACAAAUUGAGAAAUUACUUAUUUGGUGUAAAAUGACGAGAGAGCUUUAGAAUUUAAUAAAAUGUCAAAAAUACAAUUUGAUACCCUUAAAAAUUAUUC: 0.525
CAGAGACUUUGGCUUUUUGUUUAAAGAUGCCUUUAUUUUAGAUCCAGGAGGGGUUUGCUCUGAAUUUGUAAACAAGUCUUCCUCGUCCUCAUGCCCCCACCCCUCUGCUG: 0.652
AAUUACUUGUAGUAAAUCAUUUGUUUGGGCUUCAAGCACUGUCUUCCAUCUGCAUCUUCCAGAUUUAUCAUGAGUGAUCUUGUUCUACUGUUAAAGAUGUCAAGCCUAAA: 0.714
GAGGACCUAUCCCAAAUGUGGAAUUGACUGCCUAUGCCAAGUCCCUGGAAAAGGAGCUUCAGUAUUGUGGGGCUCAUAAAACAUGAAUCAAGCAAUCCAGCCUCAUGGGA: 0.501
CUACAUAGACUCCUGCCUCCAGGUGCAGGAACACACCUUCCUAAAGUGCUGUGGGAGGCCAAACUGGGGAGCUGUGCUAAGUCAAUGUAGAAAUUCUCGAGUAUUUUGGU: 0.622
GCAAUCAGAAGAGGAUGUGAGCCAGUUUGAUGCACGAUUCACACGGCAGACGCCGGUAGAUAGUCCAGAUGACACAGCCCUCAGUGAGAGUGCCAACCAAGCCUUCCUGG: 1.05
GGAUUUGGGUCCCGAGGUGCCCCCUGAGAACGUACUGGGGGCUCUGCUACGCGUCAAACGCCUGGAGAACCCCUCGCCCCAGGCGCCGGCACGCCGCCUCCUGCCUCCCU: 0.354
AGCAUUGCCCUGCCUGUCUGAAAGGACAGUUUACCUAAUGGUGCCAGCCUCCUUUUGCUUUGGCAAGCUGGAUUUCUCAGAGCCAGCAUGUUGUUUCCAUAACUACUUUG: 1.47
UGUGCCCCUGGUGCCAUCUGGCCUGGCUGGAGCCAGGAACAAGAGGUCACCCCACCCUAGAAUCCGCAUGGUUUCCCUGUGAUUGCACUCCACUGCCACCGUGGUGCCUG: 1.04
GCCUUUUGGACUUGAGUUUGUAUGUUCUGUAGGAACUACAUGCAUUCCUUUCACACAGUAUUUCAGGCUGCUGUGGUGAAUUUGAAUGGCAGAUCCUACAGUCAAUAGAU: 0.811
AGGUAGAUGUGUAACCUCUUCACCUUAUUCAUGGCUGAAGUCACCUCUUGGUUACAGUAGCGUAGCGUGCCCGUGUGCAUGUCCUUUGCGCCUGUGACCACCACCCCAAC: 0.59

Set 3
Target: Microphthalmia-associated transcription factor, full length (MITF, Homo sapiens, UniProt O75030-10, residues 1-413)
Technique: protein-binding microarray
Molecule type: double-stranded DNA, one strand shown
Matrix: in vitro
Concentration: not given
Setting: k-mer, scored over probes, only values ≥0.25
Reading: higher = stronger binding
Quantity: E-score
Target sequence (chain): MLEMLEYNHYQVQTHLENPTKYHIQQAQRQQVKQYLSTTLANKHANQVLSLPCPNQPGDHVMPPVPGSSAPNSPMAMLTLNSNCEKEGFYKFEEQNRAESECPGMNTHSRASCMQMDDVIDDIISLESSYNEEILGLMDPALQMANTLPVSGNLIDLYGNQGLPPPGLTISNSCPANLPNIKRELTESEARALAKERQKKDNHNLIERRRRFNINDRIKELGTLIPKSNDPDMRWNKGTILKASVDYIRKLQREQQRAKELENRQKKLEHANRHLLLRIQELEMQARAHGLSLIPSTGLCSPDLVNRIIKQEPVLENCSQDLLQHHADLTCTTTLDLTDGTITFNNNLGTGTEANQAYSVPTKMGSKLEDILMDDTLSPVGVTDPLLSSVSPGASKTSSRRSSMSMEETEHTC
GCAGTCA: 0.267
CCGTGAC: 0.436
ACCACGT: 0.385
CACCTGC: 0.277
CACATGA: 0.476
ACGTGTC: 0.39
ACGTGAG: 0.331
TGATGCA: 0.268
CATGTGC: 0.439
CCACGCG: 0.42
CCCACGA: 0.258
CATGATA: 0.364
AAGTCAC: 0.329
CACACGA: 0.3
ACACACG: 0.262
GGGTCAC: 0.361

Set 4
Target: PABPC1L2, full length, GST fusion (mouse, UniProt A0ABA7IW68)
Technique: RNAcompete
Molecule type: RNA
Matrix: in vitro
Concentration: 20 nM
Setting: 7-mer, probes averaged, single round
Reference: mean of 7-mers
Reading: higher = stronger binding
Quantity: 7-mer Z-score
Target sequence (chain): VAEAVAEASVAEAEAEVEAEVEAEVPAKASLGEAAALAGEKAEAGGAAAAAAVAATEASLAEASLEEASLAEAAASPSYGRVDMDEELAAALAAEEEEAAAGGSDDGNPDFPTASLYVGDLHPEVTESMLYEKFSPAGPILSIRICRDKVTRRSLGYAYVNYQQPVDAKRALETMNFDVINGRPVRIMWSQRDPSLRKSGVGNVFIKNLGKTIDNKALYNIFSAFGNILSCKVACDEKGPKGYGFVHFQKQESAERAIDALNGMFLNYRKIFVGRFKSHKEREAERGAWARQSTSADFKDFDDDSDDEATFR
UGGAUAU: 0.106
GCCAUUC: -0.262
GUUCCGC: -0.336
GAGUCGU: -0.45
GCCGGAA: 0.177
GCUUCCA: -0.347
ACCCUUC: -0.412
AACACUG: 0.213
ACUUUCG: -0.291
CUAGGUA: -0.128
UGACCGA: -0.00289
AGUACGC: -0.235
CGAUCGU: -0.238
UCGGGGU: -0.151
GAUAGCG: -0.195
CGCCGUG: -0.378
GGGGUCG: 0.184
CCGAGUU: -0.315

Set 5
Target: Fragile X messenger ribonucleoprotein 1, C-terminal low-complexity region (Fmr1, Mus musculus, UniProt P35922)
Technique: RNA Bind-n-Seq
Molecule type: RNA
Matrix: in vitro
Concentration: 200 nM
Setting: whole 134-nt RNA, ends assumed
Together with: 150 mM KCl
Reference: input library
Reading: higher = stronger binding
Quantity: log2 enrichment
Constant ends, left off below: GGGAGUUCUACAGUCCGACGAUC … UGGAAUUCUCGGGUGUCAAGG
AGUCCUGUGCUACACAUCGUAUGUACCGAAUCGGGGAAAAAGGGAAAAAGGAAAAAGGAAAGUAUUAUGUUACGCCGUUCGGAUCUGCAC: -0.396
UUAAGUGUAUUGGAGCCCCAAGUUCUCAAUUAUUUGAGCCUCCGGGCGACAGAGCAAGAAAAGGUGAGUGGAUAGCGCAGGCAUAUUGGU: 0.355
CACAGACAACACGCACCCACACAGACACAAAGGGAAGGGGUUGGGAUGGGGACAGGGUGCACAGCAGGGCGGGGUAGGACCCCAGCCCCU: 1.39
UUCUGGUCUGCUCACCAGAGGUUCUUCAAAUACUUAUGCAUAGCAUCCAAAGUUAAAAGGGUUGUGCAACUAGCUCGAGAGGAAAUCAAG: -1.69
CUCAAGUCCUGUGCUACACAUCGUAUGUACCGAAUCGGUUUUUGGUGGAAAGGAAAGUAUUAUGUUACGCCGUUCGGAUCUGCACUUCCA: -0.131
UCCUGUGCUACACAUCGUAUGUACCGAAUCGGGGAAAAAAGGGAAAAAAGGGAAAAAAGGAAAGUAUUAUGUUACGCCGUUCGGAUCUGC: 0.0431
CAAGUCCUGUGCUACACAUCGUAUGUACCGAAUCGGGUUUUGGUUUUGGGUUUUGGAAAGUAUUAUGUUACGCCGUUCGGAUCUGCACUU: -0.765
GUCCUGUGCUACACAUCGUAUGUACCGAAUCGGGGAGGGGUUUUUUUGGGGUUUGGGGAAAGUAUUAUGUUACGCCGUUCGGAUCUGCAC: 0.706
CCUCAAGUCCUGUGCUACACAUCGUAUGUACCGAAUCGGGAGGAGGGAGGGGAAAGUAUUAUGUUACGCCGUUCGGAUCUGCACUUCCAG: 1.17
CAAGUCCUGUGCUACACAUCGUAUGUACCGAAUCGGGUUUUUGGGUUUGGGAGGGAAAGUAUUAUGUUACGCCGUUCGGAUCUGCACUUC: 1.05
UCCUGUGCUACACAUCGUAUGUACCGAAUCGGGGAAAAAGGGGUUUUUGGGGUUUGGGGAAAGUAUUAUGUUACGCCGUUCGGAUCUGCA: 0.74
ACCAUGCAGGUGGGCAUCUUUGGGAAGUGGGGCAAGGGGGGGAUAGGGAGGGGGGUAACACUUUGGGAACAGGUGGUCGCAGGUCGUUUC: 0.664
UGGGAGGUGGAUUUUGUUUAUUUUUUUAGCUCAUUUCCAGGGGUGAGAAUUUUUUUUUAAUAUGUGUCAUGAAUAAAGUUGUUUUUGAAA: 0.0832
UUCUCUCUCUCCCUUUGCAGCCGCUGUACAACCAGCCCUCCGACACCCGGCAGUAUCAUGAGAACAUCAAAAUGUGAGUGCUCGCGGGCA: 0.336

Set 6
Target: Sal-like protein 4, full length isoform A (SALL4, Homo sapiens, UniProt Q9UJQ4, residues 1-1053)
Chain of UniProt Q9UJQ4 (whole entry, looked up): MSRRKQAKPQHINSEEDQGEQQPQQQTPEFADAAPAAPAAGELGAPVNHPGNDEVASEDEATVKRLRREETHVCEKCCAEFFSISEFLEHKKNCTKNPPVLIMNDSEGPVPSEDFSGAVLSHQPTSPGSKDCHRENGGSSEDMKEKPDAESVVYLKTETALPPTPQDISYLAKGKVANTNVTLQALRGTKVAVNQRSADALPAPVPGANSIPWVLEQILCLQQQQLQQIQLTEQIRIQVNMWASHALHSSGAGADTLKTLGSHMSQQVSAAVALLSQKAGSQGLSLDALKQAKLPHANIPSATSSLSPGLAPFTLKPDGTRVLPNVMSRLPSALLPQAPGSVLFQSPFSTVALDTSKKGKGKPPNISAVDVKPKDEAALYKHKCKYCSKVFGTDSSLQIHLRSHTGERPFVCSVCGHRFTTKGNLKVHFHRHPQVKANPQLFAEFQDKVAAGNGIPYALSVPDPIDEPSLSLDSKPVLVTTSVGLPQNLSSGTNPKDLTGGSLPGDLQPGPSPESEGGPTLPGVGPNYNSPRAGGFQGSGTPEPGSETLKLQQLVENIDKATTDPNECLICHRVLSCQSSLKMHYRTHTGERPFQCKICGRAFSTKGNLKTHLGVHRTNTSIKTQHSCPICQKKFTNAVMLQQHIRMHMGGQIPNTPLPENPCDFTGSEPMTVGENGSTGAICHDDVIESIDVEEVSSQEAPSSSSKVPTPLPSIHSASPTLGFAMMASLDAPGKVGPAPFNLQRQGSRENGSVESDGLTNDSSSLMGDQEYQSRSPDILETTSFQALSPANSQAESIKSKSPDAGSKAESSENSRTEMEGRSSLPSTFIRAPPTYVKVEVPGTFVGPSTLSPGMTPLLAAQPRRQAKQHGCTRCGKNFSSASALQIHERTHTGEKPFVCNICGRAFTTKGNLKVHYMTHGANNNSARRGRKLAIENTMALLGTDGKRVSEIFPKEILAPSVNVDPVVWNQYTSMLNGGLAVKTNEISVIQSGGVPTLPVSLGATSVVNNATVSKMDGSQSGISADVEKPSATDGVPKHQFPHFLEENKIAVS
Technique: universal PBM
Molecule type: double-stranded DNA, one strand shown
Matrix: in vitro
Concentration: 600 nM
Setting: 8-mer, flanks averaged, mean of replicates
Reading: higher = stronger binding
Quantity: E-score
CTCAACGC: -0.334
CGTCACCC: -0.223
GTGAATTA: 0.312
ACCTTTCT: 0.131
ATTCGTTG: 0.0128
GGTCCTTA: -0.1
AACGTTGC: 0.0579
ATCTGCAC: -0.0181
AGTGCGAG: -0.123
ACGTGATG: -0.0205
CAGGCGGC: -0.407
AGGGCTTC: -0.156
CTCCTGAA: -0.0361
GCTACAGC: -0.196
ACAGCAGC: -0.126
CCCTTCTC: -0.206

Set 7
Target: Prothrombin, mature alpha-thrombin (F2, Homo sapiens, UniProt P00734)
Technique: aptamer microarray, sandwich
Molecule type: DNA with 2'F-ANA
Matrix: in vitro
Concentration: 200 nM
Setting: whole 15-mer aptamer, many near background
Together with: Cy3 exosite-II aptamer, 400 nM
Reading: higher = stronger binding
Quantity: mean fluorescence intensity
Sequence: GGTTGGTGTGGTTGG
2'F-ANA at 1 2 4 5 7 8 9 11: 56.5 a.u.
2'F-ANA at 1 2 3 4 6 14 15: 89.8 a.u.
2'F-ANA at 1 2 6 8 10 13 14 15: 48.9 a.u.
2'F-ANA at 1 4 5 10 11 14: 41.9 a.u.
2'F-ANA at 2 3 6 7 9 10 11 12 15: 313 a.u.
2'F-ANA at 1 2 3 4 5 11 14: 41.7 a.u.
2'F-ANA at 1 2 3 4 5 7 8 9 11: 58.4 a.u.
2'F-ANA at 4 5 9 11 12 14 15: 44.8 a.u.
2'F-ANA at 2 6 8 9 12 13 14 15: 135 a.u.
2'F-ANA at 1 3 4 7 9 10 11 12 14 15: 65.8 a.u.
2'F-ANA at 1 2 3 4 5 12 15: 110 a.u.
2'F-ANA at 5 6 7 8 9 12 13: 122 a.u.
2'F-ANA at 1 2 3 7 14: 115 a.u.
2'F-ANA at 3 4 7 8 11 12 13 15: 831 a.u.
2'F-ANA at 2 3 5 9 10 12 13 14 15: 48.2 a.u.
2'F-ANA at 2 3 6 7 8 10 12 13 15: 404 a.u.
2'F-ANA at 4 6: 365 a.u.

For quick reference, copied from above (set 3):
TGATGCA: 0.268
CACACGA: 0.3
AAGTCAC: 0.329
CCACGCG: 0.42
CATGATA: 0.364
GCAGTCA: 0.267
CACCTGC: 0.277
ACACACG: 0.262
ACCACGT: 0.385
GGGTCAC: 0.361
CATGTGC: 0.439
CCGTGAC: 0.436
ACGTGAG: 0.331
ACGTGTC: 0.39
CCCACGA: 0.258
CACATGA: 0.476
